# Measurements pooled from the literature.
# Parts stem from different laboratories: compare values within a part only.

# Block 1
# Target: RNA binding protein fox-1 homolog 2, RRM domain, GST-SBP tag (RBFOX2, Homo sapiens, UniProt O43251-10, residues 100-194)
# Technique: RNA Bind-n-Seq
# Form: RNA
# Sample: in vitro
# Tested at: 365 nM
# Notes: natural RNA segment, single round, ends assumed
# Reference: no-protein control
# Direction: higher = stronger binding
# Shared flanks, not repeated: GGGAGUUCUACAGUCCGACGAUC … UGGAAUUCUCGGGUGCCAA
# Target sequence (chain): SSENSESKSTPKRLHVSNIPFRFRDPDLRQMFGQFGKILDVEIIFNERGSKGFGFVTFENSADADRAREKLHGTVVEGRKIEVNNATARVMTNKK
Oligonucleotide,RBNS enrichment (R)
UCCAGGAAGGAGGAGCUUCCUACUUUUGAGUUUCUCUGUGGAAAUAAAACAUGAAUCUUGUUUCCCUCGACUUUCUCAAAUUUUAUUCUUUAAUGCUAUGUUGAUGGCCU,0.435
UCAGGCAUAUAUAUCUGUCUGUUAGCAAUGAUUAUUACAUCAUCAGAUCAGCAUGUGCUAUACUCCCUGCAAGAAAUAUACUGACAUGAACAGGCAGUUCUUGGAGAAGA,2.86
CUACCUUGAAAUCCAGAAAAUCCAAUCCUUAAUCAACUGCUUGAUGAAGGAGGCAAAACAAAGGCAGCAGGAGAUAAUGUGAUUGGUACACAAAAGCUAAAGCAGUGGCU,0.376
AAACUGGAAAAAAAGAAAAAGAAAAAUAUGACUAUUAGAUUUCCAGGUAUAGAACUGUGUUCUUUGAGAGGGAAAAGAAAUAUGGUGUUUCCUUUUAGACACAAACAAUA,0.829
CCUUGAGUGGGAUGAGUCUUAGUGGGAAACAGUGCCGUCCGAGGUGGGAUGCGAUGAGAAGAUGUGAUCACUGCAGGCGCAGCGGCGAGUGGACAGCUGGCCGAGACCAG,0.694
GCCUGGGACAUCGCUGGAACCUGCACCAUGCCAGGAUCAUGGGACCAGGCGAGAGGGCACCCUCCCUUCCUCCCCCAUGUGAUAAAUGGGUCCAGGGCUGAUCAAAGAAC,0.324

# Block 2
# Target: Fragile X messenger ribonucleoprotein 1, C-terminal low-complexity region (Fmr1, Mus musculus, UniProt P35922)
# Technique: RNA Bind-n-Seq
# Form: RNA
# Sample: in vitro
# Tested at: 200 nM
# Notes: whole 134-nt RNA, ends assumed
# Together with: 150 mM LiCl
# Reference: input library
# Direction: higher = stronger binding
# Library: 7-deaza-guanosine replaces G
# Shared flanks, not repeated: GGGAGUUCUACAGUCCGACGAUC … UGGAAUUCUCGGGUGUCAAGG
Oligonucleotide,log2 enrichment
CACAGACAACACGCACCCACACAGUCACAGAGGGAAGGGGUUGGGAUGGGGACAGGGUGCACAGCAGGGCGGGGUAGGACCCCAGCCCCU,0.405
CCUGUGCUACACAUCGUAUGUACCGAAUCGGGGCCCCCCCGGCCCCCCCGGGCCCCCCCGGAAAGUAUUAUGUUACGCCGUUCGGAUCUG,0.256
AGUCCUGUGCUACACAUCGUAUGUACCGAAUCGGGUUUUUUUGGGAAAGGGUUUGGGAAAGUAUUAUGUUACGCCGUUCGGAUCUGCACU,-2.88
CUCAAGUCCUGUGCUACACAUCGUAUGUACCGAAUCGGGGAGGGGAGGGAGGGGAAAGUAUUAUGUUACGCCGUUCGGAUCUGCACUUCC,-0.174
UGGCCCUGGUGGCAUGCGGGGAGGAAGAGGUGCCCUCAUGGAUCGUGGUGGUCCCGGUGGAAUGUUCAGAGGUGGCCGUGGUGGAGACAG,1.02
UGGUGGACAGAAGGCACUGCAGCCUGAAAUGGCAGAGUCUGGUGCUGACGAUCCGCGAGAAGAUCAAUGCUGCCAUCCAGGACAUGCCAG,-2.41
UUAAAGUAGAGGAACAAAAAGAAGAACAGAAGGAGUUAGAGAAAUCUGAAAAAGAAGAGGAUGAGGAUGAUGAUAGGAAAUCUGAAGACG,-0.23
UCAAGUCCUGUGCUACACAUCGUAUGUACCGAAUCGGAAAGGAAAGGGAAAGGGGAAAGUAUUAUGUUACGCCGUUCGGAUCUGCACUUC,-0.976
CCCAUCAUGUUCAGAGGUGAGGUCCGUCUGAAUGUCGAAGAGAAGAAGACUCGAGCUGCCAGGGAAGGCGACCGACGAGAUAAUCGCCUU,-3.65

# Block 3
# Target: Centromere-binding protein 1, full length, His-tagged (CBF1, Saccharomyces cerevisiae, UniProt P17106, residues 1-351)
# Sequence of UniProt P17106 (whole entry, looked up): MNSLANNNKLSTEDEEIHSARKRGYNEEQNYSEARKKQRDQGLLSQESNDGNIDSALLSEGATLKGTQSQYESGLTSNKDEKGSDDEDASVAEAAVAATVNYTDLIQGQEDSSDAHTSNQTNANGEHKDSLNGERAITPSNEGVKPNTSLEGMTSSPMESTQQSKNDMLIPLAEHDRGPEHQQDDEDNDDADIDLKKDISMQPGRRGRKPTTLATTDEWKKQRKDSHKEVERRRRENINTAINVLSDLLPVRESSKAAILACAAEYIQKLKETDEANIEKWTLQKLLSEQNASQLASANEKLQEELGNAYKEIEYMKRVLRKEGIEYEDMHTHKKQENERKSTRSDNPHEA
# Technique: competition protein-binding microarray
# Form: double-stranded DNA, one strand shown
# Sample: in vitro
# Tested at: 2 µM
# Notes: whole 60-bp probe, lowest competitor level
# Together with: Pho4 competitor, 0.05 µM
# Direction: higher = stronger binding
# Shared flanks, not repeated: … GTCTTGATTCGCTTGACGCTGCTG
Oligonucleotide,fluorescence intensity [a.u.]
AAATTACTAAGTTGTCACGCGACTTACCCCGTATGA,790
AGTAGCGGCTGCCGTCACGCACCATGGGTACCATCT,82.8
TACTCCACTGCTCCACACGTTGTTGCTGCTGTTATG,88.1
GTCTTGTCTCATTGGGACGTGGGTGTCCCCACTTCA,57.6
AAGACGCTGATTCACCACGTGAGACGAAGATTCAAA,1270
AAAGCGGTAATTTGGGGAGTGGGTGCAGATATCTAT,75
GAAGGTTTGATCCATCACGTGCCAGATTTTATACCG,7570

# Further values, each from its own experiment
Molecule,target,assay,system,setting,how to read,measurement,result
"PhoQ, residues 284 288 289 292 302 303 ALAMYF","PhoP, residues 12 14 15 18 19 YHFSH (Escherichia coli, UniProt P23836)","Sort-seq, measured: YFP reporter",E. coli,"PhoQ-PhoP variant library, together with: 10 µM Mg2+","reference: high Mg2+ state, higher = stronger signaling",fold induction,3.07

# For quick reference, copied from above (block 1):
Oligonucleotide,RBNS enrichment (R)
CUACCUUGAAAUCCAGAAAAUCCAAUCCUUAAUCAACUGCUUGAUGAAGGAGGCAAAACAAAGGCAGCAGGAGAUAAUGUGAUUGGUACACAAAAGCUAAAGCAGUGGCU,0.376
CCUUGAGUGGGAUGAGUCUUAGUGGGAAACAGUGCCGUCCGAGGUGGGAUGCGAUGAGAAGAUGUGAUCACUGCAGGCGCAGCGGCGAGUGGACAGCUGGCCGAGACCAG,0.694
